Measurements gathered from unrelated publications.
TDP1: Tyrosyl-DNA phosphodiesterase 1 (TDP1, Homo sapiens, UniProt Q9NUW8)
Chain of UniProt Q9NUW8 (whole entry, looked up): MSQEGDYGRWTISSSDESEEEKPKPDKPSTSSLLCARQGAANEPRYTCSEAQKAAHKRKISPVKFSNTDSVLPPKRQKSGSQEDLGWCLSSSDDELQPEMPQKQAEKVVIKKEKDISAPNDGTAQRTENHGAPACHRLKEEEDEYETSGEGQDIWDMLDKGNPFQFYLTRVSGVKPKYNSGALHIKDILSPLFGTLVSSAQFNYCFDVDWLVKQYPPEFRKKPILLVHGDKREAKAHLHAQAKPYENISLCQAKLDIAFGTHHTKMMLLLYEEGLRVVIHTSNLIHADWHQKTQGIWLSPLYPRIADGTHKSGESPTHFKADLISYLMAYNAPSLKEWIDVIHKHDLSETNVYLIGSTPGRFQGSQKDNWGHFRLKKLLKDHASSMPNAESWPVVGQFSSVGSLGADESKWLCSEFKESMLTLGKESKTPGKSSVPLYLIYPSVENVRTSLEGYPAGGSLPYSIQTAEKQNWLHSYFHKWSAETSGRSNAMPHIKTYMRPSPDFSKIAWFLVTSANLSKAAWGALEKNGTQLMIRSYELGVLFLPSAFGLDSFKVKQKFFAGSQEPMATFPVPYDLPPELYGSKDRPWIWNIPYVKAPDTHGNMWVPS

| Compound | tested on | assay | system | conditions | quantity | value |
| --- | --- | --- | --- | --- | --- | --- |
| C=C[C@]1(C)C[C@@H](OC(=O)CSc2ccc(NC(=O)c3ccco3)cc2)[C@]2(C)[C@H](C)CC[C@]3(CCC(=O)[C@H]32)[C@@H](C)[C@@H]1O | Mycoplasma gallisepticum | – | chicken lung isolates | 20 mg/kg to chickens | MIC | 0.00195 µg/mL |
| O=C(O)c1ccc(Nc2c(-c3ccc(CON=Cc4cc5c(cc4[N+](=O)[O-])OCCO5)cc3)nc3cc(-c4ccccc4)ccn23)cc1 (mixture of isomers) | TDP1 | enzyme activity, inhibitor | – | 100 µM, unpurified compound | inhibition | 52.3% |
| CCCCCCCCCCCC[N+](C)(C)CCCCCCCCOc1cc(OCCCCCCCC[N+](C)(C)CCCCCCCCCCCC)cc(OCCCCCCCC[N+](C)(C)CCCCCCCCCCCC)c1.[Br-].[Br-].[Br-] | Enterococcus faecalis | – | OG1RF | – | MIC | 32 µM |
| COc1ccc(NC(=O)COc2cccc(OCC(C)C)c2)cc1 | Pichia kudriavzevii | microbial growth, broth dilution | ATCC6258 | – | MIC | > 128 µg/mL |
| C=C(NC(=O)c1csc(-c2nc3c(cc2O)-c2nc(cs2)C(=O)NC(C(C)O)C(=O)NC(=C(C)OC)c2nc(cs2)C(=O)NC2c4nc(cs4)C(=O)NC(COC(=O)c4c5c6c(cccc6n4O)COC(=O)C(OC4CC(C)(O)C(N(C)C)C(C)O4)C2OC5)c2nc-3cs2)n1)C(N)=O (stereo not drawn) | Streptococcus pneumoniae | microbial growth, agar dilution | ATCC49619 | – | MIC | 0.0078 µg/mL |
| CCCCCCCCn1cc[n+](CCCCOc2cc(OCCCC[n+]3ccn(CCCCCCCC)c3)cc(OCCCC[n+]3ccn(CCCCCCCC)c3)c2)c1.[Br-].[Br-].[Br-] | Enterococcus faecalis | – | OG1RF | – | MIC | 0.5 µM |
| Cc1c(CN(C)C(=O)/C=C/c2cnc3c(c2)CC(N)C(=O)N3)oc2ccccc12 (stereo not drawn) | Acinetobacter baumannii | broth microdilution | AR-0299 | – | MIC | 32 µg/mL |
| CCCCCCCCn1cc[n+](CCCCCCOc2cc(OCCCCCC[n+]3ccn(CCCCCCCC)c3)cc(OCCCCCC[n+]3ccn(CCCCCCCC)c3)c2)c1.[Br-].[Br-].[Br-] | Enterococcus faecalis | – | OG1RF | – | MIC | 1 µM |
| CC1C=CC=CC(C)C2C=CC3CC(C)(O)C(Cl)C(C)C3C2C(=O)C(Cl)(Cl)C(=O)C(C)C(=O)O1 (stereo not drawn) | Staphylococcus aureus | – | MRSA clinical isolate | resistant OXA/CLI/ERY | MIC | 0.1 µg/mL |
| COC1C=COC2(C)Oc3c(C)c(O)c4c(c3C2=O)C2=NC3(CCN(CC(C)C)CC3)NC2=C(NC(=O)C(C)=CC=CC(C)C(O)C(C)C(O)C(C)C(OC(=O)Nc2cnccn2)C1C)C4=O (stereo not drawn) | Mycobacteroides abscessus | – | ATCC 19977 | single-strain MIC | MIC | 40 µg/mL |
| CC(=O)ON=Cc1c(C)c(C=NOCc2ccc(-c3nc4cc(-c5ccccc5)ccn4c3Nc3ccc(C(=O)O)cc3)cc2)n2ccccc12 | TDP1 | enzyme activity, inhibitor | – | 100 µM, unpurified oxime | inhibition | 99% |
| C[C@@H]1C(=O)O[C@@H](C)/C=C/C=C\[C@@H](C)[C@@H]2C=C[C@@H]3C[C@@]4(C)O[C@H]4[C@@H](C)[C@H]3[C@@H]2C(=O)C(Cl)(Cl)C1=O | Staphylococcus aureus | – | MRSA clinical isolate | resistant OXA/CIP/CLI/ERY | MIC | 0.05 µg/mL |

A few entries again:
| Compound | tested on | assay | system | conditions | quantity | value |
| --- | --- | --- | --- | --- | --- | --- |
| C=C[C@]1(C)C[C@@H](OC(=O)CSc2ccc(NC(=O)c3ccco3)cc2)[C@]2(C)[C@H](C)CC[C@]3(CCC(=O)[C@H]32)[C@@H](C)[C@@H]1O | Mycoplasma gallisepticum | – | chicken lung isolates | 20 mg/kg to chickens | MIC | 0.00195 µg/mL |
